# Experimental data from different studies.
# Parts stem from different laboratories: compare values within a part only.

# Block 1
# Target: RING finger protein unkempt homolog, zinc fingers 1-6, GST-SBP tag (UNK, Homo sapiens, UniProt Q9C0B0, residues 30-357)
# Chain of UniProt Q9C0B0 (30-357, looked up): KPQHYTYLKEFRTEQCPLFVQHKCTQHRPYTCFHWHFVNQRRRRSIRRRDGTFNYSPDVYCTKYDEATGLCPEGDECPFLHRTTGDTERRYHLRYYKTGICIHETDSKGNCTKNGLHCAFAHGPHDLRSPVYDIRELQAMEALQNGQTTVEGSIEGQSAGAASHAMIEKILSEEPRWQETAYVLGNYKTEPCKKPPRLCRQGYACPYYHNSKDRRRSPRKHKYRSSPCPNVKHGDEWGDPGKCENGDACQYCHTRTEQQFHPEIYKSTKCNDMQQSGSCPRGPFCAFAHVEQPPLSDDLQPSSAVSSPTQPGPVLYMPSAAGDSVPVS
# Technique: RNA Bind-n-Seq
# Form: RNA
# Sample: in vitro
# Concentration: not given
# Notes: RNA with constant flanks, human-mouse chimeric sites, ends assumed
# Relative to: input RNA pool
# Reading: higher = stronger binding
# Shared flanks, not repeated: GGGAGUUCUACAGUCCGACGAUC … CAACAGAGGAUUGAGCAUCA
Oligonucleotide,bound/input enrichment [ratio]
GUGUCCUGCUUUCAACUUAAAUCACUGAGGCAUCUCUACUGUUCUGUUAAAAUCAGGACUGUAGCGCUGUGUCACCACAGAUGAGAACAGAAGCAGCCUUUCUGUGGAGGGUGGGAAUGA,0.144
GAAAGAGAACUAAAGCAACUAAUAGAGAAGAGGAUUGGGCAAAGAGAUUUCAUAGAGAAACUAGGAUUUAUUAGCAAACAUGAGUUAUAUUCCAGAGCGUCUCAGAAACCCCAGCCAAAC,3.52
GGCUGCUGGUGACUGUCCUGGAGUGGCUGGAGUUCCCGCCGGAGCGCGGCCAGACUAAUUUUAGAAAAUGCCAAGUAGGAAGUUUGUCGAUGGUGAAGUGGUAAGAGGCCGAUGGCCUGG,3.12
ACUCAGAGAUUAUAUUCCCAAAGUGCUGGGAGUAAAGGUGUGGCCACCACACCUAACUUGAUGGAUAUUUUAUAAAGUUAAUAUGAAUCUUCCUGUUCGUCCAGGGAAGAAAGAUUUGUU,0.511
GAUAAGAAAAACUUGUUGGAGACCCGCUUGCAUGUCACUGGUAGAGACCUGAGGUGUAAAAUAGCUGAAACUUUCGGAUUUCAAGAAAAUUACAUCAAGAUCGUAAUAAAUAAGAAACAG,0.351
UUGAAAACUGAUUCAAGUAAGUUUGAGUAUCACAAUGUUAGCUUUCUAAUUCCAUAAAAGUACUUGGUUUUUACAGUUUAUAAUCUGCAAUCCAUCAAGCGCCAUUUGUAAAGAGCAACU,0.41
UCUGAGGUACCACUGAAGAGACCUUAAAAGAAUCAUUUGAGGGCUCUGUUCGUGCAAGAAUAGUCACUGAUCGGGAAACUGGUUCUUCCAAAGGGUUUUGGUUUUGUGACUUUAAUAGUG,0.291
ACUCAGAGAUCCACCUCCCAAAGUGCUCUGGAGCUCUGUGUGGCCACCACACCUAACUUGAUGGAUAUAUAUUUUUUUUAAUAUGAAUCUUCCUGUUCGUCCAGGGAAGAAAGAUUUGUU,1.45
UCUUAACUUAUUCAUUUCUUAUUUUUAUAUAGCUAGAUAAAUAUUGUUAGUCUUAGACAAUAGCUCACAUUUUUUGAGAAGCAUGCCCUCCCUGUCCAUUGGGCCCAUAACAUGACCCAG,139
UUACCCGAGAACGAGGAUGAGCUGGAGAGCACCAACAGGCGCUACACCAAGAGGGACUGCAGCACUUUUCUCAGAACUAGUGAGACGGGCAUCGUGGACCAGGUCAUGGUAACUCUCAAC,0.12
GAAACAUUUAAAUUUAAAGAAGCUGUUGUUCUAGGAAGUACGGACUUCCUAGAAGAUGAUAUAGAGAAAAUUGUAGAAGAACUGGGGAAAGAGUAUAAGGGCAACGCCUACCAUCUGAUG,1.23

# Block 2
# Target: Sal-like protein 4, full length isoform B (SALL4, Homo sapiens, UniProt Q9UJQ4-2, residues 1-616)
# Technique: universal PBM
# Form: double-stranded DNA, one strand shown
# Sample: in vitro
# Concentration: not given
# Notes: 8-mer, flanks averaged, mean of replicates
# Reading: higher = stronger binding
Oligonucleotide,E-score
AGGCCACG,-0.227
ACAATAAC,0.386
CCGGCTCA,-0.0686
GAGTGCCC,-0.368
ATACTGAA,0.232
AAACGCAA,0.108
CCCGCATA,0.126
AAGCGGTA,-0.0603
AACTGTAA,0.328
CTCTATTA,0.218
CTCGGTAC,-0.197
GCGCAAAA,0.222
TTTCAAAA,0.349
TGTGATAA,0.27
ATAAAAGA,0.261
ATGTGGAG,-0.0135
CAAACCAA,0.116
GGACTTTA,0.138
CCCGGGTC,-0.363
AAACATTA,0.33
GCTCGTAC,-0.0982
GTTTTAGA,0.0892

# Block 3
# Target: Max-binding protein MNT, bHLH-zipper, MAX partner unstated (MNT, Homo sapiens, UniProt Q99583, residues 220-300)
# Technique: protein-binding microarray
# Form: double-stranded DNA, one strand shown
# Sample: in vitro
# Concentration: not given
# Notes: k-mer, scored over probes, only values ≥0.25
# Reading: higher = stronger binding
# Residues (chain): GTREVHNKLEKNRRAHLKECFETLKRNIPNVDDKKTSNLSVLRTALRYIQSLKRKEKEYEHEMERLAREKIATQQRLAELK
Oligonucleotide,E-score
ACCCACCC,0.364
CCCTCCAC,0.263
GTCACGCA,0.351
ACGCGAGG,0.328
GCGGGGAA,0.272
CATGCTTC,0.392
AAGGCATG,0.335
CGTGCGAC,0.294
CATGCCAC,0.372
TGGCCACA,0.346
CAGGTGAC,0.334
ACGCCCGA,0.263
CGTGACCA,0.389
GTGGGCGA,0.257
ACGTGGAC,0.448
AGGCATGG,0.316
CGCGTGAC,0.447
ATGTGCTG,0.356
CACGCATG,0.44
ATGCCCCG,0.261
CATGCCGC,0.384
AACCACAT,0.275
CGTGTGTA,0.361

# Block 4
# Target: Interferon regulatory factor 5, full length, phosphomimetic (IRF5, Homo sapiens, UniProt Q13568-2, residues 1-514, K96S/S451D/S453D/S456D/S462D)
# Technique: protein-binding microarray
# Form: double-stranded DNA, one strand shown
# Sample: in vitro
# Concentration: 250 nM
# Notes: 60-bp whole probe
# With: salmon DNA 0.4 mg/ml
# Relative to: random background probes
# Reading: higher = stronger binding
# Shared flanks, not repeated: GCCTAGCAC … GTCTTGATTCGCTTGACGCTGCTG
Oligonucleotide,log fluorescence
GACGGACTGGACTATCGGGACGTGCTA,0.708 z-score
GTCACTCTCTGGGCTGTGGGTGTGCTA,-0.344 z-score
TTAGATATCCGGACTGGATTAGTGCTA,-0.161 z-score
TTAGATCTCAGTATCGATTGGTGCTAG,6.07 z-score
TTAGGACGGCTTTTCCTTTAGTGCTAG,-0.113 z-score
TCACTTCTGGTGCTCATACTGTGCTAG,0.418 z-score
TCAGGACTGGACTATCGGTTAGTGCTA,5.67 z-score
GACTGTTTCGACACTGGGGACGTGCTA,4.91 z-score
GATGATATCAGACTGGAGACGTGCTAG,0.247 z-score
TCACCAATGGTCTTTCCAACTGTGCTA,0.0979 z-score
TTAGGTAGCGACACTGGGTTAGTGCTA,-0.0446 z-score
GACGGTTTCGACTAGCGGGACGTGCTA,6.58 z-score
TACGGTTTCCTTTCCCTGACGTGCTAG,1.69 z-score
TTAGATCTCTGTTTCGATTAGTGCTAG,7.84 z-score
CCTAATCTCAGCCTCCGTCAGTGCTAG,-0.22 z-score
ATATGTAAGATATCCATATGGTGCTAG,0.165 z-score
GACGATATCAGACTGGAGATGTGCTAG,0.332 z-score
GTAGTAATCTTAAGGCTGTCGTGCTAG,-0.359 z-score
TTAGGTATCGGGTATCGGTCAGTGCTA,6.39 z-score
CCCTATTTAAGGCTAGGCACGTGCTAG,-0.178 z-score
GACGGACTGCTATTCCTGACGTGCTAG,-0.454 z-score
GACGGTATCCCACTGCTGACGTGCTAG,-0.187 z-score
TCTAATTTACTTTGGTTGGCGTGCTAG,0.433 z-score
TCAGATTACATATATGTTACTGTGCTA,0.435 z-score
TTAGAAGTGGGGTTTCGATTAGTGCTA,5.97 z-score

# Block 5
# Target: Histone acetyltransferase KAT6A, both winged helices, GST fusion (KAT6A, Homo sapiens, UniProt Q92794, residues 1-181)
# Technique: protein binding microarray
# Form: double-stranded DNA, one strand shown
# Sample: in vitro
# Concentration: not given
# Notes: 8-mer, flanks averaged, mean of 2 arrays, mostly near background
# Relative to: not given
# Reading: higher = stronger binding
# Target sequence (chain): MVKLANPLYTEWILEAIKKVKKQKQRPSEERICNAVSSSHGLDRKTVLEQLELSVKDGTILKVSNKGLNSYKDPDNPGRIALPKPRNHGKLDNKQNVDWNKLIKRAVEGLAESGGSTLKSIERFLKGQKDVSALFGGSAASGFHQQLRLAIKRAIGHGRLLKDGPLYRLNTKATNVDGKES
Oligonucleotide,E-score
AGCGATCG,0.122
AAATATGC,-0.0652
ATCGGATC,0.0902
GCAAGGCA,-0.124
ATACTGAC,-0.0397
TAATCGAA,0.0262
TGACGACA,-0.0575
AAGAGACA,-0.158
CCGAATAC,0.171
GGCACAAA,0.0297
AGGCATAG,-0.0562
ACATCCCG,0.212
AAAGCTGC,-0.0284
AGTTGTCC,0.0464
AGGTAGCA,-0.216
ATGTCAGG,-0.182
CCATCGGG,0.0709
ATTACTAA,-0.0279
CAGTGGAC,-0.153
ACTGACGA,-0.109
AACCCCGA,0.195
CACGTTCC,-0.0465
GATCCCGC,0.187
ATGTTAAA,-0.0754
CAAAAGCC,0.02

# A few entries again (block 2):
Oligonucleotide,E-score
AAACGCAA,0.108
CAAACCAA,0.116
TTTCAAAA,0.349
ATAAAAGA,0.261
AAGCGGTA,-0.0603
AAACATTA,0.33
